Published values from different studies.
Each numbered part is a random draw from the data of one study; scales do not carry over between parts. “And” joins repeats or separate records; there may be more than shown.
Chain of UniProt O75582 (whole entry, looked up): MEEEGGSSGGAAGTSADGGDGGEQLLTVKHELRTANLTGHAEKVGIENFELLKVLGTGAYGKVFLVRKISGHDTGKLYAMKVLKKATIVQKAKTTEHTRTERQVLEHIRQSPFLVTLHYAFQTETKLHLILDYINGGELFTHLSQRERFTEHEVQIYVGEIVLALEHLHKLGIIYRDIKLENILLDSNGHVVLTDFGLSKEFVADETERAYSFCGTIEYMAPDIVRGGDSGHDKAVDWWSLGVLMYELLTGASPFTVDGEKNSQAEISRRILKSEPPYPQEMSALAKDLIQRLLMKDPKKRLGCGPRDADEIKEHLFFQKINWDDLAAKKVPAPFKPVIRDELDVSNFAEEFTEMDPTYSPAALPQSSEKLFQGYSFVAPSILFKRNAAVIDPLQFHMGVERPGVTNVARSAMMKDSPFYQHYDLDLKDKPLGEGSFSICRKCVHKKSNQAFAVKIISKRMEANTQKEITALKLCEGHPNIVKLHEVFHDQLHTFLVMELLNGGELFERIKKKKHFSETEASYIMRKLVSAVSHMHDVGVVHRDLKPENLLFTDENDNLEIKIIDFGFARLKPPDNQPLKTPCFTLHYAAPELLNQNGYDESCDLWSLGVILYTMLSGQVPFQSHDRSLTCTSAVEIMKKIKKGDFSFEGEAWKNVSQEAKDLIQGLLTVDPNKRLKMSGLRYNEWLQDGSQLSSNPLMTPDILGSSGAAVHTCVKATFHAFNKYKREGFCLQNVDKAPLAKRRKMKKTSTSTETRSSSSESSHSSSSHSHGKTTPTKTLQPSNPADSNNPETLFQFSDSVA
Chain of UniProt Q00534 (whole entry, looked up): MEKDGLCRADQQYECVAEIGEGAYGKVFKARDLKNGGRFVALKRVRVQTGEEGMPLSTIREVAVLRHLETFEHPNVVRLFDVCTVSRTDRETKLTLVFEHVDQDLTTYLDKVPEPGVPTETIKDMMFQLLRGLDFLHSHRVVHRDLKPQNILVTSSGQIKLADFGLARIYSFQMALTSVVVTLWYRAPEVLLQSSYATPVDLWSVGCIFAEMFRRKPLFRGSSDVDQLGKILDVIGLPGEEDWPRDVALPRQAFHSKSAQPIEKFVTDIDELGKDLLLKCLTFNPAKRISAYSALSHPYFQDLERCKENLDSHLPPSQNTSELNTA
Chain of UniProt P00519 (whole entry, looked up): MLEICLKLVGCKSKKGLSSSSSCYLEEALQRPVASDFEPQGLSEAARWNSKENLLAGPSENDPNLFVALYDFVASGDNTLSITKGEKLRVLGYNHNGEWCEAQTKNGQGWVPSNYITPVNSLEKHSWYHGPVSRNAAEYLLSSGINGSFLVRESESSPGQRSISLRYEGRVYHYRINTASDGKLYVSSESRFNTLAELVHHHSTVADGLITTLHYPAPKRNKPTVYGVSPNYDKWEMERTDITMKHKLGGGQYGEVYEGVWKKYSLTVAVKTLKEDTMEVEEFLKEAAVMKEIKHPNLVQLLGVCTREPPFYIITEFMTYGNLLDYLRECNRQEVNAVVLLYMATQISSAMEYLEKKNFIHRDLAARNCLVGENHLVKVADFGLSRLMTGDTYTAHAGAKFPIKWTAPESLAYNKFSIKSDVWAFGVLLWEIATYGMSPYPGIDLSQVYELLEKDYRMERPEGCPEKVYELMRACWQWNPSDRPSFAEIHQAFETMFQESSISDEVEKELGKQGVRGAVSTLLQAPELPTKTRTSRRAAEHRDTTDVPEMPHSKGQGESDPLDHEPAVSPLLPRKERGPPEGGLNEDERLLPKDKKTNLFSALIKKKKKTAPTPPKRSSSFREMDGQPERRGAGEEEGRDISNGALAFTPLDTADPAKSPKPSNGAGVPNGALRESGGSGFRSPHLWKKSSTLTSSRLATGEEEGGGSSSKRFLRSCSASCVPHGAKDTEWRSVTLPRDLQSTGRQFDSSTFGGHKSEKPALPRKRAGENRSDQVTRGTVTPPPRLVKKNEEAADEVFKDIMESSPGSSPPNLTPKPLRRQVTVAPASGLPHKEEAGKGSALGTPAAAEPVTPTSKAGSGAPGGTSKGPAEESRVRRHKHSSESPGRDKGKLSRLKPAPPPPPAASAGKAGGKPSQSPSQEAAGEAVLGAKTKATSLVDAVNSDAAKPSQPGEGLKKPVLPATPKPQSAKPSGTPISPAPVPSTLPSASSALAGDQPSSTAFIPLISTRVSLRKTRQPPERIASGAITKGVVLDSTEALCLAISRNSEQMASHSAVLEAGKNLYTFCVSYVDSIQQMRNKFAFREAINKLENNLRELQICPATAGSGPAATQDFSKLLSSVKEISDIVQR
Chain of UniProt O95819 (whole entry, looked up): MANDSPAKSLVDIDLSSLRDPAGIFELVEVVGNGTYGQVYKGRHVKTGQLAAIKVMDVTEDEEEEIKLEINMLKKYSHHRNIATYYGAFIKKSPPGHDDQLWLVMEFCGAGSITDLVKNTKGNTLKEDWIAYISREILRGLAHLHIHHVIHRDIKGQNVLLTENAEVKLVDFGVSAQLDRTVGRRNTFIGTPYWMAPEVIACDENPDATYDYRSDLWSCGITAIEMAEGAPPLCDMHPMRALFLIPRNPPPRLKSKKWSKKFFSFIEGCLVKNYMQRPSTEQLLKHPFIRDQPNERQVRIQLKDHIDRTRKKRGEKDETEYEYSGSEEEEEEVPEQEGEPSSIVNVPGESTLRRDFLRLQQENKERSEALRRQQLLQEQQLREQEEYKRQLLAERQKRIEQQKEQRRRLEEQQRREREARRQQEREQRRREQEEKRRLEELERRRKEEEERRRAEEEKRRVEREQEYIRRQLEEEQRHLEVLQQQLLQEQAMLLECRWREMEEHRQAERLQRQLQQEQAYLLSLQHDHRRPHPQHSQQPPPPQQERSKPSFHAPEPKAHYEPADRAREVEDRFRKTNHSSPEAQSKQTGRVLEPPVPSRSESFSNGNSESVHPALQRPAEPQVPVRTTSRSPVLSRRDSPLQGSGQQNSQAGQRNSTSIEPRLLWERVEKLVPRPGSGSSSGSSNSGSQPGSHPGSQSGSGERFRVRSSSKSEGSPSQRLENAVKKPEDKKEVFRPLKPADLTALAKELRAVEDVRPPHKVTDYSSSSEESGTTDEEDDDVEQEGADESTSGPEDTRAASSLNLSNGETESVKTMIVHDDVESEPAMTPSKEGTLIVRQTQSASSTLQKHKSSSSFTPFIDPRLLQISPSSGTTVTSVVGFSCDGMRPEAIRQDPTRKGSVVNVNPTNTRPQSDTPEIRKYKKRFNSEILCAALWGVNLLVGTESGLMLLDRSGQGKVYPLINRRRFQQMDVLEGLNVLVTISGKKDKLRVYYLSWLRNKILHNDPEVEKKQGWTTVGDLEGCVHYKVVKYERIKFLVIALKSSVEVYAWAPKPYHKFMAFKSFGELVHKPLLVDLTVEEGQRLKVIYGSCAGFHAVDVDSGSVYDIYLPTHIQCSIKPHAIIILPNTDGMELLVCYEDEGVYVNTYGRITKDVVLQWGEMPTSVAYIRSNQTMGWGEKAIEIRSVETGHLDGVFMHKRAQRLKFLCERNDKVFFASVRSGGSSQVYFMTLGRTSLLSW
Chain of UniProt Q16644 (whole entry, looked up): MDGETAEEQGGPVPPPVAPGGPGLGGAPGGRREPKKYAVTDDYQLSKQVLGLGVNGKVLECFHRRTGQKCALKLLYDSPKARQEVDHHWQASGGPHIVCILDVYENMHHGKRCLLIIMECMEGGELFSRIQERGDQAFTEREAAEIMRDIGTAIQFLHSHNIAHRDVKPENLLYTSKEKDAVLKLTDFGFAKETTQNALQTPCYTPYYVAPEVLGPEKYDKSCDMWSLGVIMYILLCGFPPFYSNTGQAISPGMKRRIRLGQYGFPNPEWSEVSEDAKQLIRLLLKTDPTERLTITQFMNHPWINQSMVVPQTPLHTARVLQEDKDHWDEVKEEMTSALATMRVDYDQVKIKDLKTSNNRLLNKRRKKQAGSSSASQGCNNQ
Chain of UniProt Q9UQM7 (whole entry, looked up): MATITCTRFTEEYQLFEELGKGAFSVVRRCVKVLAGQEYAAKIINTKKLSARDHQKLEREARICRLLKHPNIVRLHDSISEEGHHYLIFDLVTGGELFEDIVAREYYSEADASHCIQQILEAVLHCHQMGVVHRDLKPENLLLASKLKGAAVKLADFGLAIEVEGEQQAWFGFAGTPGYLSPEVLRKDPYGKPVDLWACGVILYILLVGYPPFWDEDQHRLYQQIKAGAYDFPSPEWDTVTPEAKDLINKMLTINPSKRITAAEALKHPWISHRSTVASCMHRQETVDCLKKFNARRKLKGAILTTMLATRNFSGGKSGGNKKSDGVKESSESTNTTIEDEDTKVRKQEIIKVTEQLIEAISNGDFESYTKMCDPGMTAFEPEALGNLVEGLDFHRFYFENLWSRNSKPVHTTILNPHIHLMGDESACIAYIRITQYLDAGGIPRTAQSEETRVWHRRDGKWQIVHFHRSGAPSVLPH

Series 1
Structure (SMILES): CC[C@@H](C)c1nc2cc(Nc3ccnc4ccc(S(=O)(=O)C(C)C)cc34)ccc2s1.Cl
cell line | effect on | technique | tested at | added | viability
L929 RIPK3 knockout |  |  | 50 µM |  | 38.7% and 38.2% and 45.8% and 46.8%
HT-29 | necroptosis protection | CCK-8 | 5 µM | TNF-α SMAC mimetic zVAD | 104% and 97.6% and 82.2% and 93.5% and 88%
L929 RIPK3 knockout |  |  | 100 µM | zVAD | 47.4% and 51% and 53.1% and 37.3% and 39.7%
L929 |  | CCK-8 | 12.5 µM | zVAD | 113% and 112% and 107% and 109%
L929 |  | CCK-8 | 0.781 µM | zVAD | 94.7% and 93.5% and 96.8% and 95.7% and 92.5%
HT-29 | necroptosis protection | CCK-8 | 0.078 µM | TNF-α SMAC mimetic zVAD | 20.2% and 20.6% and 12.7% and 19.5% and 21.5%
HT-29 | necroptosis protection | CCK-8 | 1.25 µM | TNF-α SMAC mimetic zVAD | 69.5% and 31.9% and 32.9% and 49.7%
L929 |  | CCK-8 | 25 µM |  | 98.9% and 84.8% and 82.2% and 82.4% and 85.2%
HT-29 | necroptosis protection | CCK-8 | 20 µM | TNF-α SMAC mimetic zVAD | 97.7% and 83.6% and 86.4% and 98.5%
L929 |  | CCK-8 | 100 µM |  | 36.7% and 46.2% and 36.9% and 37.3%
L929 RIPK3 knockout |  |  | 1.563 µM | zVAD | 103% and 93.8% and 104% and 99.8% and 98.7%
L929 RIPK3 knockout |  |  | 3.125 µM |  | 106% and 103% and 105% and 101%
L929 RIPK3 knockout |  |  | 12.5 µM | zVAD | 108% and 107% and 104% and 94.8%

Series 2 — effect on: enzyme activity; mode: inhibitor; tested at: 0.5 µM; reference: control
SMILES: N/C(=N\[N+](=O)[O-])N/N=C\c1ccc(-c2cccc([N+](=O)[O-])c2)o1
target | remaining activity [%]
ABL1 (Homo sapiens, UniProt P00519) | 101
Cyclin-dependent kinase 6, with cyclin D3 (CDK6, Homo sapiens, UniProt Q00534) | 94.7
RPS6KA5 (Homo sapiens, UniProt O75582) | 101
MAPKAPK3 (Homo sapiens, UniProt Q16644) | 95.4
MAP4K4 (Homo sapiens, UniProt O95819) | 95.6

Series 3 — organism: Sarcocystis neurona; effect on: parasite activity; tested at: concentration not given
Compound | activity class
Cl.Oc1cc2c(cc1O)[C@H]1c3ccccc3CN[C@@H]1CC2 | inactive
COc1ccc(CCN)cc1OC | inactive
CN1CC[C@@]23CCCC[C@@H]2[C@@H]1Cc1ccc(O)cc13.O=C(O)C(O)C(O)C(=O)O | inactive
CCN(CC)CCOC(=O)C(O)(c1ccccc1)c1ccccc1.Cl | inactive

Series 4 — effect on: cell-free assay; technique: competition with immobilised ligand; tested at: 1 µM
Target: Cyclin-dependent kinase 2 homolog (CRK2, Plasmodium falciparum, UniProt P61075)
Chain of UniProt P61075 (whole entry, looked up): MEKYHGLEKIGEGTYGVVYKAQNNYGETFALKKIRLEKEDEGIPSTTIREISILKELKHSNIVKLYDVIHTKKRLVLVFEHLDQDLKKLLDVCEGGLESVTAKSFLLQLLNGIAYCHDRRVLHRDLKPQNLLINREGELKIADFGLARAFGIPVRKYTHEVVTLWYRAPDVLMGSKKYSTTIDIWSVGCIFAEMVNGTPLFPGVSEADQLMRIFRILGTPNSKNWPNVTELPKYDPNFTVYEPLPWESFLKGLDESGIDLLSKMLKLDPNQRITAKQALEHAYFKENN
Compound | remaining binding [%]
CCCOc1ccc([C@H]2[C@H](C(=O)O)[C@@H](c3ccc4c(c3)OCO4)CN2CC(=O)Nc2c(CC)cccc2CC)cc1 | 87
CC(=O)N1CCC(c2ccc(C(=O)NC(=N)N)cc2C(F)(F)F)CC1 | 100
O=C(N[C@H]1CCCCC/C=C\C2C[C@@]2(C(=O)O)NC(=O)[C@@H]2C[C@@H](Oc3ccncc3)CN2C1=O)OC1CCCC1 (some centres unmarked) | 78

Mixed results
Structure (SMILES) | target | effect on | mode | tested at | measurement | result
COC(=O)C1=CO[C@@H](C)[C@H]2CN3CC[C@]4(C(=O)Nc5ccccc54)[C@@H]3C[C@H]12 | Calcium/calmodulin-dependent protein kinase type II subunit alpha (CAMK2A, Homo sapiens, UniProt Q9UQM7) | enzyme activity | inhibitor | 10 µM | inhibition | 12%

For quick reference, copied from above (series 1):
cell line | effect on | technique | tested at | added | viability
L929 |  | CCK-8 | 25 µM |  | 98.9% and 84.8% and 82.2% and 82.4% and 85.2%
L929 |  | CCK-8 | 12.5 µM | zVAD | 113% and 112% and 107% and 109%
HT-29 | necroptosis protection | CCK-8 | 5 µM | TNF-α SMAC mimetic zVAD | 104% and 97.6% and 82.2% and 93.5% and 88%
